# Measurements from different studies.
# Parts stem from different laboratories: compare values within a part only. “And” joins repeats or separate records; there may be more than shown.
# Sequence of UniProt P10721 (whole entry, unmodified, looked up): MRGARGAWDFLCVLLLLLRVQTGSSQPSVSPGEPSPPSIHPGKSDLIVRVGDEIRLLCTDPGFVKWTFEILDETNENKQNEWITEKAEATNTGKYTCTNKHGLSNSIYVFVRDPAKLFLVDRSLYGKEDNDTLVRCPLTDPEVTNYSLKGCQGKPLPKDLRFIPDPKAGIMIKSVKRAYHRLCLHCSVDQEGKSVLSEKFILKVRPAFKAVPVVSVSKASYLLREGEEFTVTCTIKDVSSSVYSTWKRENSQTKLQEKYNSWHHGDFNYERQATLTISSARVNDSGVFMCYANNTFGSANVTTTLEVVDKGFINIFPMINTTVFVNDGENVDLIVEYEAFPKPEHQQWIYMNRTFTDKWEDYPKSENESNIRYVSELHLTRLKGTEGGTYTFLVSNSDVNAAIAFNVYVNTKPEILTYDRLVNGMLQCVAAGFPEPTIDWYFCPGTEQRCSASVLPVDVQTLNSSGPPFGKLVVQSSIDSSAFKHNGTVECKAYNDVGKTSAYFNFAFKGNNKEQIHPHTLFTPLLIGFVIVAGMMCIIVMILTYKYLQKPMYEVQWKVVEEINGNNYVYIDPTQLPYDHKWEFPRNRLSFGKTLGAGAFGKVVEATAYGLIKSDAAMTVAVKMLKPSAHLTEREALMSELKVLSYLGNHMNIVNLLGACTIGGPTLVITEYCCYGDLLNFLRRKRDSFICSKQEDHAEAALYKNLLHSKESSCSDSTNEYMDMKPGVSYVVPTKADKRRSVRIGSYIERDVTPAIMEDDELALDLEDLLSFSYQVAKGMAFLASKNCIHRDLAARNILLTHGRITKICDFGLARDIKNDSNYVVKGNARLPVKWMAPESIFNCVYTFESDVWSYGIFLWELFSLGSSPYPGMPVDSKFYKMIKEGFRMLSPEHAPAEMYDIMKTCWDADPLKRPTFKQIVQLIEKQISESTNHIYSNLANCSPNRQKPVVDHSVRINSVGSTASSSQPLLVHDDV
# Sequence of UniProt Q8IU85 (whole entry, looked up): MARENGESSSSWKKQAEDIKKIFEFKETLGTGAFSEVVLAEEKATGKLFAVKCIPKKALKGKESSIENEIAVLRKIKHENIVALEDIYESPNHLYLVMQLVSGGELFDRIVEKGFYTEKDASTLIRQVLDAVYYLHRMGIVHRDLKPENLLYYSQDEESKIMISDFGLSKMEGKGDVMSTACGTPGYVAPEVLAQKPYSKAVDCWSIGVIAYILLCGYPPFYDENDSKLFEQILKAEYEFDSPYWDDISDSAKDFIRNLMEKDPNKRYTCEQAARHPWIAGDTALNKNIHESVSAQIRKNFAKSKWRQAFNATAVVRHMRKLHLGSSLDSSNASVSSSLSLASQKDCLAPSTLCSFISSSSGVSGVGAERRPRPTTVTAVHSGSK
# Sequence of UniProt P50613 (whole entry, looked up): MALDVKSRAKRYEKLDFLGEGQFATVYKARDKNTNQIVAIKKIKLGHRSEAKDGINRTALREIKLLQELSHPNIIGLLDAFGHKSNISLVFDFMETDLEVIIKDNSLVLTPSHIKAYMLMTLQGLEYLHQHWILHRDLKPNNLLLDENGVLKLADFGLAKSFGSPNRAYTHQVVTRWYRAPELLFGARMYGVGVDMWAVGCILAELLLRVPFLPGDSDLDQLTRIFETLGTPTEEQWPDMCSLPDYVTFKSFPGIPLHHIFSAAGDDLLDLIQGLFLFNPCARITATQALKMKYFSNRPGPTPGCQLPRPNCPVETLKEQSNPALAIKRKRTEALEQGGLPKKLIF
# Sequence of UniProt Q00526 (whole entry, looked up): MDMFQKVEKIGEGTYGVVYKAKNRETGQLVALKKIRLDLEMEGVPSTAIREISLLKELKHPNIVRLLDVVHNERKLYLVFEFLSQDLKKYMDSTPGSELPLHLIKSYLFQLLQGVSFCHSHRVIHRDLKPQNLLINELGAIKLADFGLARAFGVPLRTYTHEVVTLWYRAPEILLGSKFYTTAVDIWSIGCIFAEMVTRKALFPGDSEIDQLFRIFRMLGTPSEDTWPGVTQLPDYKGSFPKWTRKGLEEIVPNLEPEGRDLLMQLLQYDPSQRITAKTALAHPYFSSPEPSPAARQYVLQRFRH

# Study 1
# Target: DNA polymerase theta, ATPase domain (POLQ, Homo sapiens, UniProt O75417)
# Sequence of UniProt O75417 (whole entry, unmodified, looked up): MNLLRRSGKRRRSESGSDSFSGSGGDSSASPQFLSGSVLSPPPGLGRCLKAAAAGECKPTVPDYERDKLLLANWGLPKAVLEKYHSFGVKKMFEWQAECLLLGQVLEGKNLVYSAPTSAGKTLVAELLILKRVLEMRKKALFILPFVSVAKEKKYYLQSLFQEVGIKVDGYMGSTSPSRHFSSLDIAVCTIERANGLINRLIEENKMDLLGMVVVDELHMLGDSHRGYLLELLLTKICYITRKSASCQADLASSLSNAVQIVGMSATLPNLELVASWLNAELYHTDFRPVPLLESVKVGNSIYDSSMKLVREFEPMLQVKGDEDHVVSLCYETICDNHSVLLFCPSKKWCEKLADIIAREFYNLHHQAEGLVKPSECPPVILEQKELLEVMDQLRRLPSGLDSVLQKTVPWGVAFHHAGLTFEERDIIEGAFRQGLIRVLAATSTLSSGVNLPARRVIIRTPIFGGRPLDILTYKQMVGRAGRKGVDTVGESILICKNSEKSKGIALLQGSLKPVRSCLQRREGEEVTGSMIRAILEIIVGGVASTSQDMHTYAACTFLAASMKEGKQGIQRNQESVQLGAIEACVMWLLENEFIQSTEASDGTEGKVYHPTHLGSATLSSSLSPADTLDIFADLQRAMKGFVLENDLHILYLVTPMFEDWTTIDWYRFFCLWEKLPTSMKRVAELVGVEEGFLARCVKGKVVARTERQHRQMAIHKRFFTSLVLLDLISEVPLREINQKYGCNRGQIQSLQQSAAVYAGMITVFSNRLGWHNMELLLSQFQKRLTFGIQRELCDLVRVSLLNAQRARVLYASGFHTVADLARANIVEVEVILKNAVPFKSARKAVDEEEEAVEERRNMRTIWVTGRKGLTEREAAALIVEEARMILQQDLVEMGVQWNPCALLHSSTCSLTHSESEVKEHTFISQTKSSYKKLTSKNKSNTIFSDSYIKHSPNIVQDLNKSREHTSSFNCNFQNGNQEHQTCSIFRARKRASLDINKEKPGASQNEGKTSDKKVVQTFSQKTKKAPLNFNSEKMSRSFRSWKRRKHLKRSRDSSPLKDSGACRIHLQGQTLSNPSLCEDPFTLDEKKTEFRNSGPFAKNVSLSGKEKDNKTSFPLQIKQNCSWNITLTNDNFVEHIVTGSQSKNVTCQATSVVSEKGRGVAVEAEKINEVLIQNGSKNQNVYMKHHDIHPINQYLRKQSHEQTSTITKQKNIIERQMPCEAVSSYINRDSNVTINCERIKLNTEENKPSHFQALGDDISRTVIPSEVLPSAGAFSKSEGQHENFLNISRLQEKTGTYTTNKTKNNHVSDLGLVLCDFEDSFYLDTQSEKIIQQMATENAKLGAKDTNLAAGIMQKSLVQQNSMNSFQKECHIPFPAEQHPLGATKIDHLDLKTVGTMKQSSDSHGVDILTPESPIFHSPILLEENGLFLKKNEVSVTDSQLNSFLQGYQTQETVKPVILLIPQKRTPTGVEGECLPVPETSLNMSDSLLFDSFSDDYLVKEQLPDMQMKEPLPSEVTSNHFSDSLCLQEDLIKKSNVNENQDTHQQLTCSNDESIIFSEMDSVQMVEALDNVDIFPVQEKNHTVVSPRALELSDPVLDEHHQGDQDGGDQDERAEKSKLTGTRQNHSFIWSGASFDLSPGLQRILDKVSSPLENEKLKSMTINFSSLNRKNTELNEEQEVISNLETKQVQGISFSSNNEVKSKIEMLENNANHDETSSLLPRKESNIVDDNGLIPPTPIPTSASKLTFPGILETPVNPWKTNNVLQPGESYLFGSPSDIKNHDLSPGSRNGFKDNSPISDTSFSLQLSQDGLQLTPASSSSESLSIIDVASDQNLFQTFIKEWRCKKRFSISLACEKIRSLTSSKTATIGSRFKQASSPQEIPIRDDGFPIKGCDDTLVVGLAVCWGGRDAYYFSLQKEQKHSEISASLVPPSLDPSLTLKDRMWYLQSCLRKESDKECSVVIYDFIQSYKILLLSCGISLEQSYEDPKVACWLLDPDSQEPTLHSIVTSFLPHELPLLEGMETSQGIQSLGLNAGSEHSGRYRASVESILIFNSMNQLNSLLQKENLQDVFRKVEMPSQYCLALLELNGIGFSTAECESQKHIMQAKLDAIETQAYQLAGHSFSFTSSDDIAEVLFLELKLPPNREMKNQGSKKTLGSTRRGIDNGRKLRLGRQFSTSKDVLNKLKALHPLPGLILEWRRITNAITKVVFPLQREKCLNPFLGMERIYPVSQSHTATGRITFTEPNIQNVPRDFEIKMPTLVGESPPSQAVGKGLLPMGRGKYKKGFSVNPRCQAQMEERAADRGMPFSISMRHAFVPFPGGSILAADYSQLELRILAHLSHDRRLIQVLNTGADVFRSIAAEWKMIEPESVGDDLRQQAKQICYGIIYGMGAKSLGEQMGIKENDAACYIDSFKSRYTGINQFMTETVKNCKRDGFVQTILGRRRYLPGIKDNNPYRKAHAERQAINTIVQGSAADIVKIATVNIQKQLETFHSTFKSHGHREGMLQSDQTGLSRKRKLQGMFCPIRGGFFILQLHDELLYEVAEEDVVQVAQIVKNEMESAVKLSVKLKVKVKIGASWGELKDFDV
# Effect on: enzyme activity
# Action: inhibitor
# Tested at: 77 µM
# Reference: untreated
Structure (SMILES),remaining activity
CC1(C)CC[C@]2(C(=O)O)CC[C@]3(C)C(=CC[C@@H]4[C@@]5(C)CC[C@H](O)C(C)(C)[C@@H]5CC[C@]43C)[C@@H]2C1,86.7%
Oc1cc2c(cc1O)[C@@H]1c3ccc(O)c(O)c3OC[C@]1(O)C2,98.8%
CC(C)(C#N)c1ccc(N2C(=O)OCc3cnc4ccc(-c5cnc6ccccc6c5)cc4c32)cc1,98.9%
COc1cc2c(cc1OC)-c1cc3ccc(OC)c(OC)c3c[n+]1CC2,102% and 87%
NCCNc1ncc(C(N)=O)c(Nc2cccc(C(F)(F)F)c2)n1,108%
Cc1nc(-c2ccccc2)c(-c2ccncc2)o1,96.7%
Nc1ncnc2c1ncn2C1CCCC1,101%
CCCc1nc(C(C)(C)O)c(C(=O)OCc2oc(=O)oc2C)n1Cc1ccc(-c2ccccc2-c2nnn[nH]2)cc1,96.9%
CCCCCCCCc1ccc(-c2ccc(C(=O)O)cc2)cc1,99.1%
CCCCOc1cc(CC2CNC(=O)N2)ccc1OC (stereo not shown),102%
O=S(=O)(c1ccccc1)N(CC(F)(F)F)c1ccc(C(O)(C(F)(F)F)C(F)(F)F)cc1,97.8%
CC1(C)[C@@H](OC(=O)CCC(=O)O)CC[C@]2(C)[C@H]3C(=O)C=C4[C@@H]5C[C@@](C)(C(=O)O)CC[C@]5(C)CC[C@@]4(C)[C@]3(C)CC[C@@H]12,103%
N#Cc1cc2nc(O)c(O)nc2cc1[N+](=O)[O-],97%

# Study 2
# SMILES: Cc1nc(N2CC[C@@H](O)C2)ncc1-c1cc(C(F)(F)F)cc2[nH]ncc12
# Technique: competition with immobilised ligand
# Tested at: 1 µM
target,assay,remaining binding
"Tyrosine-protein kinase ABL1, non-phosphorylated (ABL1, Homo sapiens, UniProt P00519, F317I)",binding,73%
"WEE1 (Homo sapiens, UniProt P30291)",binding,73%
"CDKL5 (Homo sapiens, UniProt O76039)",binding,77%
"CDK3 (Homo sapiens, UniProt Q00526)",binding,83%
"NEK2 (Homo sapiens, UniProt P51955)",binding,92%
"PIK3CA (Homo sapiens, UniProt P42336, M1043I)",cell-free assay,100%
"STK17A (Homo sapiens, UniProt Q9UEE5)",cell-free assay,100%
"Tyrosine-protein kinase ABL1, phosphorylated (ABL1, Homo sapiens, UniProt P00519, M351T)",binding,72%
"TRPM6 (Homo sapiens, UniProt Q9BX84)",cell-free assay,52%
"KIT (Homo sapiens, UniProt P10721, V559D)",cell-free assay,58%
"CDK7 (Homo sapiens, UniProt P50613)",binding,68%
"ULK2 (Homo sapiens, UniProt Q8IYT8)",binding,66%
"Tyrosine-protein kinase ABL1, non-phosphorylated (ABL1, Homo sapiens, UniProt P00519, H396P)",binding,77%
"PRKD1 (Homo sapiens, UniProt Q15139)",binding,75%
"GRK4 (Homo sapiens, UniProt P32298)",binding,86%
"PRKCQ (Homo sapiens, UniProt Q04759)",cell-free assay,100%
"PDGFRA (Homo sapiens, UniProt P16234)",cell-free assay,76%
"Mast/stem cell growth factor receptor Kit, autoinhibited (KIT, Homo sapiens, UniProt P10721)",cell-free assay,89%
"CAMK1D (Homo sapiens, UniProt Q8IU85)",cell-free assay,100%
"ULK3 (Homo sapiens, UniProt Q6PHR2)",binding,78%
"LCK (Homo sapiens, UniProt P06239)",binding,100%
"FLT3 (Homo sapiens, UniProt P36888, N841I)",binding,88%
"LRRK2 (Homo sapiens, UniProt Q5S007)",binding,58%
"MAP3K10 (Homo sapiens, UniProt Q02779)",binding,100%
"STK16 (Homo sapiens, UniProt O75716)",binding,92%

# Study 3
# Target: Serine/threonine-protein kinase 4 (STK4, Homo sapiens, UniProt Q13043)
# Effect on: enzyme activity
# Action: inhibitor
# Tested at: 0.5 µM
# Reference: control
# Construct (Q13043 1-487): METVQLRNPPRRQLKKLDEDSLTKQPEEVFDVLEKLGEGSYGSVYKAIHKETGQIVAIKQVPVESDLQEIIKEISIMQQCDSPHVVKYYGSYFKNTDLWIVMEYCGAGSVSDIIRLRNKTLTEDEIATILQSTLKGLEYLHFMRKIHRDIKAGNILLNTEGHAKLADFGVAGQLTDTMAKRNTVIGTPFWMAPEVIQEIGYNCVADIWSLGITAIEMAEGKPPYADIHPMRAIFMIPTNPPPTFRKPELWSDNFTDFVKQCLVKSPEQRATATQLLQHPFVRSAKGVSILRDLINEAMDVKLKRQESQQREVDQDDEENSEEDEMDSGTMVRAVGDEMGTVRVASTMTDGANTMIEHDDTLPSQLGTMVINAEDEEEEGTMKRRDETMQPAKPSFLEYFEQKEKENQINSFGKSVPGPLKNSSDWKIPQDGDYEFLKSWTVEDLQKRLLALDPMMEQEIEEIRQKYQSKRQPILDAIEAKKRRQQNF
Compound,remaining activity
Cc1cc2ncc(-c3ccccc3)nc2cc1C,98.6%
N#Cc1c(NC(=O)c2cccc3ccccc23)sc2c1CCCC2,93.1%
O=c1cc(-c2cccc3c2Sc2ccccc2S3)oc(N2CCOCC2)c1,95%
c1ccc(-c2[nH]ncc2-c2ccnc3ccccc23)nc1,101%
CN(C)C[C@H]1CCn2c(c(C3=C(c4cn(C)c5ccccc45)C(=O)NC3=O)c3ccccc32)C1,80.1%
COc1cc2ncnc(Nc3ccc(O)c(Br)c3)c2cc1OC,90%
N#C/C(=C\c1ccc(O)c(O)c1)C(=O)NCc1ccccc1,95.9%
COc1cc2c(cc1OC)-c1[nH]nc(Nc3cccc(F)c3)c1C2,91.5%
c1ccc(-c2cnc(Nc3ccc(OCCN4CCCC4)cc3)s2)cc1,102%
CCOc1nc(NC(=O)Cc2cc(OC)ccc2OC)cc(N)c1C#N,95.4%
COc1cc2ncnc(Nc3cccc(Cl)c3)c2cc1OC,92%
CN([C@@H](Cc1ccc(OS(=O)(=O)c2cccc3cnccc23)cc1)C(=O)N1CCN(c2ccccc2)CC1)S(=O)(=O)c1cccc2cnccc12,96.8%
CCN(CC)C(=O)c1ccc(Nc2nc(OCC3CCCCC3)c3[nH]cnc3n2)cc1,46.3%
O=C(NC(NC(=S)Nc1ccc(F)c([N+](=O)[O-])c1)C(Cl)(Cl)Cl)C(c1ccccc1)c1ccccc1 (stereo not shown),96.2%
Cn1nc2c3c(cccc31)C(=O)c1ccccc1-2,78.9%
O=C1c2ccccc2-c2n[nH]c3cccc1c23,62.3%
Ic1cccc(CSc2nnc(-c3ccncc3)o2)c1,102%
O=C(Nc1cccc(Nc2nccc(Nc3cccc(C(F)(F)F)c3)n2)c1)C1CC1,83.1%
O=C1C(Cl)=C(N2C(=O)CCC2=O)C(=O)c2ccccc21,89.1%
Cc1cn(-c2cc(NC(=O)c3ccc(C)c(Nc4nccc(-c5cccnc5)n4)c3)cc(C(F)(F)F)c2)cn1,100%
Nc1cccc(-c2cc3c(Oc4cccc(O)c4)ncnc3[nH]2)c1,94.4%
Cc1nc2cc3nc(-c4cccs4)cnc3cc2n1C,97.4%
CCN(CC)CCNC(=O)c1c(C)[nH]c(/C=C2\C(=O)Nc3ccc(Cl)cc32)c1C,2.98%

# Study 4
# Target: Calcium/calmodulin-dependent protein kinase type II subunit alpha (CAMK2A, Homo sapiens, UniProt Q9UQM7)
# Sequence of UniProt Q9UQM7 (whole entry, looked up): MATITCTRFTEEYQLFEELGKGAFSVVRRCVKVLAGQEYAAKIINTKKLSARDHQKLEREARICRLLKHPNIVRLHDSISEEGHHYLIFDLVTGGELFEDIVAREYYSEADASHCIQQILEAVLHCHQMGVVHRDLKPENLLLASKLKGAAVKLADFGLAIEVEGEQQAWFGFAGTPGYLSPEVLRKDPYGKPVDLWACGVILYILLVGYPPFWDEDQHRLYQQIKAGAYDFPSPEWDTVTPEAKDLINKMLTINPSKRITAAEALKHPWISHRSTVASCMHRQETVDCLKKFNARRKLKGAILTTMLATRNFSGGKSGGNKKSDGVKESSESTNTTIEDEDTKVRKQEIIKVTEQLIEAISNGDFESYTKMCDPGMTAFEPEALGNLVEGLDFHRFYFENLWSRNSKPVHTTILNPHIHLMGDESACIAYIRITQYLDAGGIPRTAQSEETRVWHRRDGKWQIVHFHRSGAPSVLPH
# Effect on: enzyme activity
# Action: inhibitor
# Tested at: 10 µM
Structure (SMILES),inhibition
Nc1c(O)cccc1C(=O)O,-2%
CN1CCN2c3c(cccc31)[C@@H]1CN(CCCC(=O)c3ccc(F)cc3)CC[C@@H]12,-3%
CCCCCCCCCCCCCCCCCCCC(=O)O,16%
COC(=O)[C@H](Cc1ccccc1)NC(=O)[C@@H](N)CC(=O)O,-3%
CSC(=O)OCC1=C[C@@H]2OC(=O)C3=CO[C@@H](O[C@@H]4O[C@H](CO)[C@@H](O)[C@H](O)[C@H]4O)[C@H]1[C@@H]32,-5%
OC/C=C/c1ccccc1,-29%
CC(C)=CCNc1ncnc2nc[nH]c12,13%
C=CC1=C(C(=O)O)N2C(=O)[C@@H](NC(=O)/C(=N\O)c3csc(N)n3)[C@H]2SC1,-5%
O=C(O)C(O)c1cccc(O)c1 (stereo not shown),-26%
NCC[C@H](N)C(=O)O,35%
Cn1nnc2c(C(N)=O)ncn2c1=O,5%
CC(=O)/N=c1/sc(S(N)(=O)=O)nn1C,-4%
CC1(C)CCC[C@](C)([C@H]2CC[C@]3(C)[C@@H]2[C@H](O)C[C@@H]2[C@@]4(C)CC[C@H](O)C(C)(C)[C@@H]4CC[C@]23C)O1,-1%
O=c1c(O[C@@H]2O[C@H](CO)[C@@H](O)[C@H](O)[C@H]2O)c(-c2ccc(O)cc2)oc2cc(O)cc(O)c12,-10%
CCCCCCCCCCCCCCCCOP(=O)([O-])OCC[N+](C)(C)C,-3%

# For quick reference, copied from above (study 3):
Compound,remaining activity
COc1cc2ncnc(Nc3cccc(Cl)c3)c2cc1OC,92%
c1ccc(-c2[nH]ncc2-c2ccnc3ccccc23)nc1,101%
Ic1cccc(CSc2nnc(-c3ccncc3)o2)c1,102%
N#Cc1c(NC(=O)c2cccc3ccccc23)sc2c1CCCC2,93.1%
O=C1c2ccccc2-c2n[nH]c3cccc1c23,62.3%
Cn1nc2c3c(cccc31)C(=O)c1ccccc1-2,78.9%
COc1cc2c(cc1OC)-c1[nH]nc(Nc3cccc(F)c3)c1C2,91.5%
CN(C)C[C@H]1CCn2c(c(C3=C(c4cn(C)c5ccccc45)C(=O)NC3=O)c3ccccc32)C1,80.1%
O=c1cc(-c2cccc3c2Sc2ccccc2S3)oc(N2CCOCC2)c1,95%
CCN(CC)CCNC(=O)c1c(C)[nH]c(/C=C2\C(=O)Nc3ccc(Cl)cc32)c1C,2.98%
CCOc1nc(NC(=O)Cc2cc(OC)ccc2OC)cc(N)c1C#N,95.4%
